# Results gathered from unrelated publications.
# A part holds a random share of what one study measured. Positions count from the first letter of the parent shown.

# Study 1
# Target: RING finger protein unkempt homolog, zinc fingers 1-6, GST-SBP tag (UNK, Homo sapiens, UniProt Q9C0B0, residues 30-357)
# UniProt Q9C0B0, sequence (30-357, looked up): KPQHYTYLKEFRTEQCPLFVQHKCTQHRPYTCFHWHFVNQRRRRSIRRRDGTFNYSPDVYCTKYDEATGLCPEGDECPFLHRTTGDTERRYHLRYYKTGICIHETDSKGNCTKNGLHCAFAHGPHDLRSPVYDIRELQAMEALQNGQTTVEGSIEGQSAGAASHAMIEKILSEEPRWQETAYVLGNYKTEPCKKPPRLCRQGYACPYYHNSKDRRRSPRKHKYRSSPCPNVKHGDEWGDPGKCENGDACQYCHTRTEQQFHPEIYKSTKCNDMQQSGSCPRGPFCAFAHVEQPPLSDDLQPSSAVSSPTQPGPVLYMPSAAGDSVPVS
# Method: RNA Bind-n-Seq
# Molecule type: RNA
# Sample: in vitro
# Tested at: not given
# Setting: RNA with constant flanks, ends assumed
# Reference: input RNA pool
# Direction: higher = stronger binding
# Constant ends, left off below: GGGAGUUCUACAGUCCGACGAUC … CAACAGAGGAUUGAGCAUCA
Oligonucleotide,bound/input enrichment
GGAGAAUGAAUCCUUUGGAUACUUUCAAGGACAUUCAAAUGUGAAAAUGAAUUUUUUACAACCCGAAGUAUUUAUAAUAAAAGACCAAACUUAUUUUUGUAAAUGAACCCAUAUGCUUUA,0.267 ratio
UGGACAGCUGAUAAAUUUAAUCCUUCUUUGUAAUACUUUCUAUGUGACAUUUCUCUUCCCCUCCGAAACACUGCAAAUUUUAACUGUAGGUAUGAUCUCUUCUGGUGUUGACUGGACUGC,2.09 ratio
CUUGACUUUCUACGAAUUAGUGACACAGAAAAGCUUCCAGAAUUUAAGAGCUUUGAAGAACCCGAAUUUCCUAAGCAUUCAAAAGUCAAACGGCAGAGCAGUACCGCAGAUGCUCCUGAG,0.446 ratio
AAGGUUAAAUUGCUCACUGGCAAACGAGUUCAGCUGGCAGAAGAUCUCAAGAAAGUCCGAGAAAUUCAAGAAAAGCUUGAUGCUUUCAUUGAAGCUCUUCACCAGGAGAAGUAGACUGUG,0.22 ratio
GUUGUACCUAAAGGAAAAGGAGAACAGAUUGCAAGGGAGCAUGGUAUUAGGUUUUUUGAGACCCGUGCAAAAGCAAAUAUAAACAUCGAAAAGGCGUUCCUCACGUUAGCUGAAGAUAUC,0.923 ratio
UGUUAAUAAAUUAGAAGCUAUUAACUAAACAUACCUAAAUGACACAGCUAAUAAAUGGAUCCGUUUCAUGUUCAUAACAAACUGAAAAAUACAUUACUCCAAGAAAAAGUCUUGAUACUG,0.574 ratio
GAUCAUAAGAAAGAGCUGAGAAAACUCAAUAUGUCUAUACUGAUUAAUUUCUUAGACCUUUCCGACAUCUUAAUAAGAAGUCCUGGGAGUAUAAAACGAGAAGAAAAGCUAGAAGAUCUU,0.238 ratio
CACAGAGGAGACCUCCUGUUCCUCACAAAUUUCCGGGAAGACCCAAUCAGAGCUGGUGAAACCGUUGUUUUUAAAGUUGAAGGACGAGACAUUCCAAUAGUUCACAGAGUAAUCAAAGUU,1.24 ratio

# Study 2
# Target: CCND1, cyclin fold, Cln2 fusion (human)
# Method: yeast growth competition, sequencing
# Sample: yeast
# Setting: strong parent motif
# Reference: not given
# Direction: higher = stronger binding
# Starting sequence: RBL1 docking peptide (human); GSAKRRLFGEDPP; partner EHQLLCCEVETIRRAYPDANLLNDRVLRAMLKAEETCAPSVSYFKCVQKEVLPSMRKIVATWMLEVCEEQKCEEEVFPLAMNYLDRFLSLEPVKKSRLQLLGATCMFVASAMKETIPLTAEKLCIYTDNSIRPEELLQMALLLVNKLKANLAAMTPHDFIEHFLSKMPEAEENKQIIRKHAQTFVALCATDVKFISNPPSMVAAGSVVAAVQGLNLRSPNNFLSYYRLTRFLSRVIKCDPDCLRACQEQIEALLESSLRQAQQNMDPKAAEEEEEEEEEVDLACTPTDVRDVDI
Substitution,normalised enrichment score
R5W,0.233
R5N,0.582
G1I,2.23
R6H,1.07
S2C,2
E10I,0.948
R6N,1.09
G1H,2.24
L7S,0.819
G9F,4.36
F8Y,0.197
L7N,0.712
S2Q,1.15
D11A,1.24
S2M,0.774
R6I,1.59
G1P,1.87
K4S,0.963
D11F,0.532
P13F,1.41
R5T,0.589
P13A,1.3
F8N,0.171
D11Q,1.1
E10D,2.18

# Study 3
# Target: Sal-like protein 4, full length isoform B (SALL4, Homo sapiens, UniProt Q9UJQ4-2, residues 1-616)
# Method: universal PBM
# Molecule type: double-stranded DNA, one strand shown
# Sample: in vitro
# Tested at: not given
# Setting: 8-mer, flanks averaged, mean of replicates
# Direction: higher = stronger binding
# Construct (chain): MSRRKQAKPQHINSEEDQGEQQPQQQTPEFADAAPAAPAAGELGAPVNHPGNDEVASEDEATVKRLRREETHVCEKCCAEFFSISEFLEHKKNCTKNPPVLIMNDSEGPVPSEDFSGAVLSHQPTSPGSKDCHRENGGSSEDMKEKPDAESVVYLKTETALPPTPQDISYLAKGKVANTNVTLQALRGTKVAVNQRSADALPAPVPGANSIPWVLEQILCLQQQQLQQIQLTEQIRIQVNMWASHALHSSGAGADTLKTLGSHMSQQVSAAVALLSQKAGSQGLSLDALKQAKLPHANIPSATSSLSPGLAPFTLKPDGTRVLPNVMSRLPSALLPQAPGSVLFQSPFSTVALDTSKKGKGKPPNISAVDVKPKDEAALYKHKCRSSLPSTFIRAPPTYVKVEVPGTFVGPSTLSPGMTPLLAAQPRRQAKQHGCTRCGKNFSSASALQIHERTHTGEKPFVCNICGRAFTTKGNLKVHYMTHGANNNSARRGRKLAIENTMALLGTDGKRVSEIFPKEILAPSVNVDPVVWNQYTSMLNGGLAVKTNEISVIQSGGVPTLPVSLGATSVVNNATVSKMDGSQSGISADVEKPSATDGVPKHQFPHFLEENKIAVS
Oligonucleotide,E-score
GTAGGCTA,-0.0689
ACGGCACG,-0.136
GAAAAGCA,0.0486
AGTTACTA,0.127
CTCATGCC,-0.135
ATTCTCCC,-0.0512
ACTCGGCC,-0.238
CCGAATAG,0.0321
GAGGCGCC,-0.335
AGTTTGGC,-0.0833
CTCAGTGA,-0.144
CTTAACGA,-0.0148
ATGCGGCG,-0.116
ACACGAAT,0.135
AAGGCCGA,-0.111
CTTGCGTC,-0.246
CAGCCCCG,-0.31
ATTGGTGC,-0.129
GACAGATC,0.00755

# Study 4
# Target: PABPC1L2, full length, GST fusion (mouse, UniProt A0ABA7IW68)
# Method: RNAcompete
# Molecule type: RNA
# Sample: in vitro
# Tested at: 20 nM
# Setting: 7-mer, probes averaged, single round
# Reference: mean of 7-mers
# Direction: higher = stronger binding
# Residues (chain): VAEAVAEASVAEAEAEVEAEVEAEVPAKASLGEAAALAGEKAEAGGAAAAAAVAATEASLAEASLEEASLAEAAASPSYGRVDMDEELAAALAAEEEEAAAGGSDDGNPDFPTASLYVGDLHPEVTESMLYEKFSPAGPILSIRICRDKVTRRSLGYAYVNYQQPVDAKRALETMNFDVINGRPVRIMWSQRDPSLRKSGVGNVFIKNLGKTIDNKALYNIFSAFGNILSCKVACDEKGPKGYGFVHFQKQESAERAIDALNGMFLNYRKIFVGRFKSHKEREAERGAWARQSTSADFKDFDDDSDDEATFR
Oligonucleotide,7-mer Z-score
AUUCGGC,-0.173
GUUAAAA,1.92
UAACGCU,-0.188
GUGACAC,-0.0554
CUUUCUU,-0.467
CUCGCCA,-0.365
UCUUAUG,-0.286
UGUGCGG,-0.151
ACGAGUG,0.00254
ACUUUGG,-0.151
GGAGUCC,-0.148
GUUUUGG,-0.3
GUGAUGA,-0.238
AGGCGAC,0.256
AAAUCUC,0.483
CAUUAGC,-0.267
CACCGCG,-0.195
UAGAGAC,0.124
CUUAUAA,0.0388
AAACUUC,0.929
UAACCGU,-0.228
CAGAGGA,0.251
UAAUGGG,0.066
GAGAAAG,0.769
AUGUCGG,0.0189

# Excerpt of the above (study 4):
Oligonucleotide,7-mer Z-score
ACGAGUG,0.00254
GUGACAC,-0.0554
CACCGCG,-0.195
GUGAUGA,-0.238
UCUUAUG,-0.286
